Measured values gathered from unrelated publications.
Lines come from different studies, so protocols differ. ± gives the spread as reported.
B1: ENAH EVH1 domain 1-113 (Homo sapiens, UniProt Q8N8S7); chain MSEQSICQARAAVMVYDDANKKWVPAGGSTGFSRVHIYHHTGNNTFRVVGRKIQDHQVVINCAIPKGLKYNQATQTFHQWRDARQVYGLNFGSKEDANVFASAMMHALEVLNS
Chain of UniProt Q9NUX5 (whole entry, looked up): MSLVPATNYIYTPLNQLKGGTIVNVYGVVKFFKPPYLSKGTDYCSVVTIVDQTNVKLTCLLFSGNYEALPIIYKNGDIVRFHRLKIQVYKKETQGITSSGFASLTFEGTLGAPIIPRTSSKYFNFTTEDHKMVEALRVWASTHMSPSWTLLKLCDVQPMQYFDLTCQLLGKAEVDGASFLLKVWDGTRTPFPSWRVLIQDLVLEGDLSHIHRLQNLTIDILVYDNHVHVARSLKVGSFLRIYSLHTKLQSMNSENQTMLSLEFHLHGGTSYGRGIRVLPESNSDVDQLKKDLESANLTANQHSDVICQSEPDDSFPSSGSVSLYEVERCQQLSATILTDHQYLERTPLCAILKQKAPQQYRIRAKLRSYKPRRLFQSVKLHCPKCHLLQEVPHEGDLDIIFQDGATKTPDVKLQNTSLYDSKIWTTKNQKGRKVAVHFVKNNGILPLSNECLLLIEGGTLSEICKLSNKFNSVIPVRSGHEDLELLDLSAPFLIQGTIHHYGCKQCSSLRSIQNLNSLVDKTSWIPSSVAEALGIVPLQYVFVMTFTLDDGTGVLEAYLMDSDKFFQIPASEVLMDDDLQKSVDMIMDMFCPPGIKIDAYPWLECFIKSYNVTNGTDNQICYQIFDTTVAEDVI
Chain of UniProt P25103 (whole entry, looked up): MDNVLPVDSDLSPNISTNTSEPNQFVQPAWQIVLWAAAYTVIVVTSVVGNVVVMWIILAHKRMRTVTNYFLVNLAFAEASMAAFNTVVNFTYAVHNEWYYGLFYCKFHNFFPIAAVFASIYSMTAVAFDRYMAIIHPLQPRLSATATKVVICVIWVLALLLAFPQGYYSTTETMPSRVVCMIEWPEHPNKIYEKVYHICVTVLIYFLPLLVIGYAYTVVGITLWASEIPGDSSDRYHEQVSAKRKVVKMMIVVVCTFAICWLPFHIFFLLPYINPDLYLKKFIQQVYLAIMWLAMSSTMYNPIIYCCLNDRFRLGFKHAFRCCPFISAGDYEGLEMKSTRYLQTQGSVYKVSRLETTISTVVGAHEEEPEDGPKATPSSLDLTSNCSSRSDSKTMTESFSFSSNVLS
Chain of UniProt Q01727 (whole entry, looked up): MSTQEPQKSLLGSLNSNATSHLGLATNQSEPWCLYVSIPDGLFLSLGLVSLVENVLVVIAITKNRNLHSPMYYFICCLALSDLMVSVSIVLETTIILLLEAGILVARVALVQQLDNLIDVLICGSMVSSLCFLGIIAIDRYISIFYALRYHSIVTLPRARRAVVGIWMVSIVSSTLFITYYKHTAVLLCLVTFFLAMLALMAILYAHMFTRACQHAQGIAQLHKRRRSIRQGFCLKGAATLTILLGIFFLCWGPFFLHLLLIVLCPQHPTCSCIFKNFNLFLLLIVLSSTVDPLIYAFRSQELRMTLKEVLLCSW
Chain of UniProt P06730 (whole entry, looked up): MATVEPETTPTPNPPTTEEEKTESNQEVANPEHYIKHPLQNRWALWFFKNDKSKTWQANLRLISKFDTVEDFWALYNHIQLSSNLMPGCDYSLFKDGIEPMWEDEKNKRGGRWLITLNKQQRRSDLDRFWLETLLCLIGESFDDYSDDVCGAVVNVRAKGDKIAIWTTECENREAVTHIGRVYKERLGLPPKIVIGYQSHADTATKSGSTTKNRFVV

Molecule	tested on	assay	test system	setting	scale	quantity	result
TAC1 mature Substance P, C-terminal amide (Homo sapiens)	TACR1 2-335 (Homo sapiens, UniProt P25103)	1D 19F-NMR				Kd	16000 nM
CYP17A1 C22K/P23T/R20A/R21K (Homo sapiens)	CC(=O)[C@H]1CC[C@H]2[C@@H]3CCC4=CC(=O)CC[C@]4(C)[C@H]3CC[C@]12C	steady-state kinetics		37 °C, truncated form, with: progesterone 0 – 50 µM, phosphatidylcholine		kcat	0.0218 ± 0.0005 s⁻¹
APP Aβ1-42, HiLyte Fluor 488 label (UniProt P05067)	microtubules, taxol-stabilized (Sus scrofa, UniProt P02550)	fluorescence polarisation		quadratic fit, with: taxol		Kd	2720 ± 130 nM
calcitonin gene-related peptide		sandwich ELISA	human, plasma	dose not given, 60 min		concentration difference, delayed vs immediate centrifugation	no effect
glucagon	GLP1R (Homo sapiens, UniProt P43220)	GLP-1R activation, CRE luciferase reporter, agonist	HEK293	stable human GLP-1R expression		EC50	> 1000 nM
PDCD1 extracellular , Fc fusion G124S/K131Y/A132I (Homo sapiens)	CD274 fragment (Homo sapiens)	ELISA				EC50	0.03 nM
EGF mature (Homo sapiens)	EGFR 25-645, fluorescent label (Homo sapiens, UniProt P00533)	MST				Kd	397 ± 94 nM
ACD/Tpp1 chimera fragment P1 region swapped for mouse (Homo sapiens)	POT1 (Homo sapiens, UniProt Q9NUX5)	pull-down			reference: wild-type TPP1, higher = stronger binding to POT1	relative binding	40 ± 6.2%
SQETFSDLWKLLPENN	human cyclin F-Cln2 fusion	cell growth, competitive growth sequencing	peptide, Saccharomyces cerevisiae	peptide tiling library	direction not given	enrichment score	1.5
Aβ42 (UniProt P05067)	Grm5 (Rattus norvegicus, UniProt P31424)	intracellular Ca2+ increase, Fluo-4 AM calcium imaging		500 nM, 5-30 min, abolished by mGluR5 antagonist	reference: control, higher = more responding neurons	fold of responding neurons	2.4 fold
alpha-MSH fragment fragment, N-acetyl, D-Phe, C-terminal amide	Mc1r (Mus musculus, UniProt Q01727)	cAMP accumulation, agonist	HEK293			EC50	14.1 nM
EGF (Homo sapiens)	EGFR (Homo sapiens, UniProt P00533)	Grb2 recruitment BRET ratio, agonist, BRET	HEK293T	transient expression		EC50	10.5 nM
SQETFSDLWKLLPENNV (TP53 15-31 (Homo sapiens, UniProt P04637); sequence looked up)	MDM2 fragment (Homo sapiens)	competition with labeled peptide, competitor, fluorescence polarisation	peptide	30 min, room temperature		IC50	5220 ± 196 nM
RMFPNAPYL	HLA-A2 peptide complex	complex dissociation, flow cytometry, soluble TCR	peptide	37 °C		half-life	14.7 h
ermE F43A (Saccharopolyspora erythraea)	C[S+](CC[C@H](N)C(=O)O)C[C@H]1O[C@@H](n2cnc3c(N)ncnc32)[C@H](O)[C@@H]1O	steady-state kinetics		pH 7.5		K0.5	2.6 µM
EIF4G1 fragment x, stapled at Glu615	EIF4E (Homo sapiens, UniProt P06730)	SPR				kon	330000 M⁻¹ s⁻¹
B1 (ENAH EVH1 domain 1-113)	PCARE peptide (Homo sapiens)	ITC				Kd	4800 nM
ermE R36E (Saccharopolyspora erythraea)	C[S+](CC[C@H](N)C(=O)O)C[C@H]1O[C@@H](n2cnc3c(N)ncnc32)[C@H](O)[C@@H]1O	steady-state kinetics		pH 7.5		K0.5	0.83 µM

For quick reference, copied from above:
Molecule	tested on	assay	test system	setting	scale	quantity	result
ermE R36E (Saccharopolyspora erythraea)	C[S+](CC[C@H](N)C(=O)O)C[C@H]1O[C@@H](n2cnc3c(N)ncnc32)[C@H](O)[C@@H]1O	steady-state kinetics		pH 7.5		K0.5	0.83 µM
calcitonin gene-related peptide		sandwich ELISA	human, plasma	dose not given, 60 min		concentration difference, delayed vs immediate centrifugation	no effect
ACD/Tpp1 chimera fragment P1 region swapped for mouse (Homo sapiens)	POT1 (Homo sapiens, UniProt Q9NUX5)	pull-down			reference: wild-type TPP1, higher = stronger binding to POT1	relative binding	40 ± 6.2%
